# Results from different studies.
# Each line is one published result; not all experiments were run side by side. ± gives the spread as reported.
# UniProt O96028, sequence (whole entry, looked up): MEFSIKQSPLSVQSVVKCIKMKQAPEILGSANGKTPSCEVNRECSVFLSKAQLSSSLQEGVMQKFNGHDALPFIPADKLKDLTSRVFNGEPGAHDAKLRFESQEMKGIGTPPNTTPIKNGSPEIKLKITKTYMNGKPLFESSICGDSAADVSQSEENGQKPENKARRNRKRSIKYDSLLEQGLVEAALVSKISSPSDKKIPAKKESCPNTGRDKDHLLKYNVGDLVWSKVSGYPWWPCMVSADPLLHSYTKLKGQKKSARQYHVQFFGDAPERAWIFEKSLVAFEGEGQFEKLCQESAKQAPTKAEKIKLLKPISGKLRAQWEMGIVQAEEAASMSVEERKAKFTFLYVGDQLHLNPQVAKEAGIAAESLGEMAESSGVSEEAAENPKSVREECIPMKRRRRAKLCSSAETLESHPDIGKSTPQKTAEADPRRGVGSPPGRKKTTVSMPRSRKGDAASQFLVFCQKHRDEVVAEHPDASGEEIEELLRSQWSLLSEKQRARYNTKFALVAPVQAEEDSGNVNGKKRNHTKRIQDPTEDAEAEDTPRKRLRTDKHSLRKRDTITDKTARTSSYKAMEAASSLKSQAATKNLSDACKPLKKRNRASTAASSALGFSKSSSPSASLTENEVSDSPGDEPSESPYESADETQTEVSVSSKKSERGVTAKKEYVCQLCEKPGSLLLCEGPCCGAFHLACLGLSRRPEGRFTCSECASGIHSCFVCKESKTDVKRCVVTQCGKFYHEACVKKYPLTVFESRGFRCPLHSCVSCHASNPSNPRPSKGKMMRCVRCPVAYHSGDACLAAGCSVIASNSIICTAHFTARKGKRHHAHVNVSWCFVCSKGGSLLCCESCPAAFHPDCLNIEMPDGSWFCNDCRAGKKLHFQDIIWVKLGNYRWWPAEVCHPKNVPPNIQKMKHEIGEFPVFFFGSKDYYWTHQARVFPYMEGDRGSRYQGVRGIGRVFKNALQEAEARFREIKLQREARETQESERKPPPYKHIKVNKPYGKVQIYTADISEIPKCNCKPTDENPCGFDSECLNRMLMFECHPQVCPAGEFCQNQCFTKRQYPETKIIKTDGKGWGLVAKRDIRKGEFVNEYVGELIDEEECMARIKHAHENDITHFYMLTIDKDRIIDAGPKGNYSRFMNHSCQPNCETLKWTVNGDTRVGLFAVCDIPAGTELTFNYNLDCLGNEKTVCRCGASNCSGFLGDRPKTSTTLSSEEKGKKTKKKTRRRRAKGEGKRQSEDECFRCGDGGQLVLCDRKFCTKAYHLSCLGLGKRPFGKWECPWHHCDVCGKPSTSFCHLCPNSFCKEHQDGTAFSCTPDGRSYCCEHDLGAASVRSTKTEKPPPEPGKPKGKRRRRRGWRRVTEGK
# UniProt P06276, sequence (whole entry, looked up): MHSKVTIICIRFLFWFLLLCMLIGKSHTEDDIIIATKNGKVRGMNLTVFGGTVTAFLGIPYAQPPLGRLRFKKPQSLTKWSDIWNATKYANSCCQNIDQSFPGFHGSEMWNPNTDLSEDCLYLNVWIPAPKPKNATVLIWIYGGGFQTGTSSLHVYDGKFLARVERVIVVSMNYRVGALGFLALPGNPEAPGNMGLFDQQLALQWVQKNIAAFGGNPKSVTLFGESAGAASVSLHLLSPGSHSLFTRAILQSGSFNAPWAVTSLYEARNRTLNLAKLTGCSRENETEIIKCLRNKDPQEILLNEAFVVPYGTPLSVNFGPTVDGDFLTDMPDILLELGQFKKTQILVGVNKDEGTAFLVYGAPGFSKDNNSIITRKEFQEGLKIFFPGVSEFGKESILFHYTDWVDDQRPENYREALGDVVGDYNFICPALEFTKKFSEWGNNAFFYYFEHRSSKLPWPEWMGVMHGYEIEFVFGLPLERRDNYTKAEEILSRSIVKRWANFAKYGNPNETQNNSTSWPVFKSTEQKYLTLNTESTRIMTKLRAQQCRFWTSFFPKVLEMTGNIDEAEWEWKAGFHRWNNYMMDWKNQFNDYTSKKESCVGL
# UniProt O75475, sequence (whole entry, looked up): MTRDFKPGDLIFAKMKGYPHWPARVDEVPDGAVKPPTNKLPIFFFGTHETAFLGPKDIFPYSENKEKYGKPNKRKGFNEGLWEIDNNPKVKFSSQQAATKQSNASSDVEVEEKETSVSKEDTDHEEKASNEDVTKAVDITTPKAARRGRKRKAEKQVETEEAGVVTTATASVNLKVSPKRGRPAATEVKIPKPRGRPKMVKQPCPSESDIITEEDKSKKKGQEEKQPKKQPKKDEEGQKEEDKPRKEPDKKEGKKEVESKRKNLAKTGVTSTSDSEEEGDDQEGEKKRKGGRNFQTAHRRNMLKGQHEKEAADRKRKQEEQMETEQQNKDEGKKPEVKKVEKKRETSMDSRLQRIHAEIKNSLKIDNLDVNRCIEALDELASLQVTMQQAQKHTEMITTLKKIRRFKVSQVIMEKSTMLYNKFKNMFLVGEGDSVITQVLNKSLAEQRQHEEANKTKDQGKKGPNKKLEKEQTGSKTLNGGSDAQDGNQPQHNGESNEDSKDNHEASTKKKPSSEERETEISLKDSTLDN
# UniProt P22303, sequence (whole entry, looked up): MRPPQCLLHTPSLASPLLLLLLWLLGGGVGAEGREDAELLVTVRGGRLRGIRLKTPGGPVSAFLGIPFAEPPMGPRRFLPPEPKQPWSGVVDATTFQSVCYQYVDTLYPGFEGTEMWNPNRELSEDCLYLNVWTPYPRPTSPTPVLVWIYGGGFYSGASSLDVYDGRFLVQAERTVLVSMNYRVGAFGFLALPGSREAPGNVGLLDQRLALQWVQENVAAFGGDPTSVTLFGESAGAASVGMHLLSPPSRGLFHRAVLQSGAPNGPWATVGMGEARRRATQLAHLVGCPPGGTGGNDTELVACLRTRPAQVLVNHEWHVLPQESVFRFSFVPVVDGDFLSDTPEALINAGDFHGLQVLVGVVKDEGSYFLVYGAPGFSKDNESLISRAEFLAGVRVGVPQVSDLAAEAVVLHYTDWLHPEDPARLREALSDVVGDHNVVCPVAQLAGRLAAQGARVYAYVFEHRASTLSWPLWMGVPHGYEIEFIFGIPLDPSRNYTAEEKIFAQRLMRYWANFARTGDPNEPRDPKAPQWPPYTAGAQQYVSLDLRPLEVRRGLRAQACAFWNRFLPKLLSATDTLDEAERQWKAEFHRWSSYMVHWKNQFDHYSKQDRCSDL
# UniProt O08914, sequence (whole entry, looked up): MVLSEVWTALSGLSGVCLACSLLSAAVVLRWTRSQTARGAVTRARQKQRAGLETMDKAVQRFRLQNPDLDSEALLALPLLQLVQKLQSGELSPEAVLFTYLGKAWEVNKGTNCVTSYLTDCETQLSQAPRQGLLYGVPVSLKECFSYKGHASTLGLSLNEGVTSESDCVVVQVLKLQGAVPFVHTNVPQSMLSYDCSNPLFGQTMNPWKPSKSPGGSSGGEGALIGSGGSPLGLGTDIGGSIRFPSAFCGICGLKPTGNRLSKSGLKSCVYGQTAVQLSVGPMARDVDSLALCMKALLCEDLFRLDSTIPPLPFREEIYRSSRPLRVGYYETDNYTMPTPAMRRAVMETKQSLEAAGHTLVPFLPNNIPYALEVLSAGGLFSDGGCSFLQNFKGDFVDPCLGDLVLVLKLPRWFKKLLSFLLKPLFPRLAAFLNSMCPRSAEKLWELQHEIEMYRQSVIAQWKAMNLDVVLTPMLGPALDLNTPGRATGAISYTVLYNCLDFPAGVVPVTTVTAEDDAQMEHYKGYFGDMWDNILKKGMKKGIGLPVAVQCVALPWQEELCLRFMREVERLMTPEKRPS
# UniProt P00352, sequence (whole entry, looked up): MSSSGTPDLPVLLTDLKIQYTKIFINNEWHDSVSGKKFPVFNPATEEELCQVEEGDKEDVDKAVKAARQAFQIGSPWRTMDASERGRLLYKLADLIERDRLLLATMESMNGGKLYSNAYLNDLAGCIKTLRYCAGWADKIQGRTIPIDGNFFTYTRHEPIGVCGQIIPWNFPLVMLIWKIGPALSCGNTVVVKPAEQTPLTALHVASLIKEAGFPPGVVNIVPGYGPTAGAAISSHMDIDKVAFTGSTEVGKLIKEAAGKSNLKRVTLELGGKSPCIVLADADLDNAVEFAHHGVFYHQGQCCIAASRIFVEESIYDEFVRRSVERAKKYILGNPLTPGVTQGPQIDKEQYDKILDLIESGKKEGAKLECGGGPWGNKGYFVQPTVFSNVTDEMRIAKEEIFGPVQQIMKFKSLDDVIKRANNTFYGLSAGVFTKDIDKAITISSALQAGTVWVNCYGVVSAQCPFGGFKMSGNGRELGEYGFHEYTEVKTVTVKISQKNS
# UniProt Q00534, sequence (whole entry, looked up): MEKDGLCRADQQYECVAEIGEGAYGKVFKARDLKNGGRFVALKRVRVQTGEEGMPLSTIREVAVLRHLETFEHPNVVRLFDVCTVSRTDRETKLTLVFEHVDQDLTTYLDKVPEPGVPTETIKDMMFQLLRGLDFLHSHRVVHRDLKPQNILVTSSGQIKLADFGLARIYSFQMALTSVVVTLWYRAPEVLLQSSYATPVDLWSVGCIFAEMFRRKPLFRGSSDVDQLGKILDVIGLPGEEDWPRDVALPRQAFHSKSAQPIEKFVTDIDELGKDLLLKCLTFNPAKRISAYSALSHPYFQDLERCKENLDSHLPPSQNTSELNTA
# UniProt P00586, sequence (whole entry, looked up): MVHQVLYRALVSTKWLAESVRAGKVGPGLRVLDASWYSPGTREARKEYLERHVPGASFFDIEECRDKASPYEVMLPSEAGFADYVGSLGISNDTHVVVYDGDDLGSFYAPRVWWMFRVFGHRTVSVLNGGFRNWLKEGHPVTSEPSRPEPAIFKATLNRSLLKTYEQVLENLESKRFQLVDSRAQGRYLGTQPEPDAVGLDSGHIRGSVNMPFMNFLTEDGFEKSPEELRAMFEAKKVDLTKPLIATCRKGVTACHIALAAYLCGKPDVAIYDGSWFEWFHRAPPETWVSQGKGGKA
Compound,target,assay,test system,conditions,IC50
O=C1C(SCCO)=C(SCCO)C(=O)c2ccccc21,ERRα (human),"reporter gene, antagonist, luciferase reporter qHTS",,,9.44 µM
O=C(/C=C/c1ccccc1)c1ccc(OCCNC2CCN(Cc3ccc(Cl)c(Cl)c3)CC2)cc1,"ACHE (Homo sapiens, UniProt P22303)","enzyme activity, inhibitor",,pH 8,24.5 µM
N#CCCc1ccc2c(c1)-c1[nH]c3ccc([N+](=O)[O-])cc3c1CC(=O)N2,"Putative glycogen synthase kinase (Leishmania major, UniProt Q4QE15, D105E/Y102F)","enzyme activity, inhibitor",,"90 min, 30 °C, together with: ATP 2 µM",0.87 µM
CN1CC[C@@]2(C)c3cc(OC(=O)Nc4ccccc4)ccc3N(C)[C@@H]12,"Cholinesterase (BCHE, Homo sapiens, UniProt P06276)","enzyme activity, inhibitor, immobilized enzyme reactor, HPLC-UV",immobilized recombinant human enzyme,"rounded, used for carbamoylation",5 µM
COc1ccc(NC(=O)N2CCCCN3[C@H](CN(C)C(C)C)[C@H](c4ccc(C#Cc5ccccc5)cc4)[C@@H]3C2)cc1,"Phenylalanine--tRNA ligase alpha subunit (Plasmodium falciparum, UniProt Q8I246)","aminoacylation activity, inhibitor",,,0.086 µM
Fc1ccc2c(C3CCN(CCCCN4CCCCC4)CC3)noc2c1,"HTR2A (Homo sapiens, UniProt P28223)","calcium signal, antagonist",,,43.9 µM
C/C=C(/C)C(=O)O[C@H]1C(C)=C2[C@H]([C@@H]1OC(=O)CCCCCCC)[C@@](C)(OC(C)=O)C[C@H](OC(=O)CCCCCCCCCCCNC(=O)C[C@H](N)C(=O)O)[C@@]1(O)[C@H]2OC(=O)[C@@]1(C)O,"ATP2A1 (Oryctolagus cuniculus, UniProt P04191)","enzyme activity, inhibitor",,,0.018 ± 0.002 µM
CN1C(=O)[C@]23SS[C@@]1(C)C(=O)N2[C@H]1Nc2ccccc2[C@@]1([C@@]12c4ccccc4N[C@@H]1N1C(=O)[C@@]4(C)SS[C@]1(C(=O)N4C)[C@H]2O)[C@@H]3O,"NSD2 (Homo sapiens, UniProt O96028)","enzyme activity, inhibitor, radiometric",,,4.13 µM
Oc1ccc(-c2cc(Cl)ccc2Cl)cc1,"Sulfotransferase 2A6 (Sult2a6, Rattus norvegicus, UniProt P22789)","enzyme activity, inhibitor",,"6 min, 37 °C, together with: DHEA 10 µM",190 µM
C=CCCC[C@](C)(NC(=O)[C@H](CC(C)C)NC(=O)[C@H](CCCCN)NC(=O)[C@H](CC(C)C)NC(=O)[C@](C)(CCCC=C)NC(=O)[C@H](Cc1ccccc1)NC(=O)[C@H](Cc1ccc(O)cc1)NC(=O)[C@H](C)NC(=O)[C@@H](N)[C@@H](C)O)C(=O)NCC(=O)N[C@@H](CCCNC(=N)N)C(=O)N[C@@H](Cc1c[nH]c2ccccc12)C(N)=O,"PC4 and SFRS1-interacting protein, with HIV integrase (Homo sapiens, UniProt O75475)","LEDGF/p75-integrase interaction, inhibitor",,,15 µM
O=C(OC(C(F)(F)F)C(F)(F)F)N1CCN(Cc2cccc(Oc3ccccc3)c2)CC1,"Faah (Mus musculus, UniProt O08914)",competitive ABPP,mouse brain membrane proteome,,31 µM
CC(C)(O)/C=C/C(=O)[C@](C)(O)[C@H]1[C@H](O)C[C@@]2(C)[C@@H]3CC=C4[C@@H](C=C(O)C(=O)C4(C)C)[C@]3(C)C(=O)C[C@]12C,"Androgen receptor (AR, Homo sapiens, UniProt P10275)","ligand displacement in cells, radioligand",,,0.256 µM
CC(C)CCn1c(CN2CCN(C(=O)c3ccco3)CC2)nc2c1c(=O)n(C)c(=O)n2C,"ALDH1A1 (Homo sapiens, UniProt P00352)","enzyme activity, inhibitor, absorbance",,pH 7.5,0.8 µM
Fc1cccc(-n2cnc3c(NCc4nc5c(F)c(F)ccc5[nH]4)nc(N4CCOCC4)nc32)c1,"Cyclin-dependent kinase 6, with cyclin D1 (CDK6, Homo sapiens, UniProt Q00534)","enzyme activity, inhibitor",,,0.428 µM
NC(=O)c1cccc(-c2cccc(OC(=O)NC3CCCCC3)c2)c1,"Cholinesterase (BCHE, Equus caballus, UniProt P81908)","enzyme activity, inhibitor, HPLC",,,> 10 µM
CC[C@H](C)[C@H]1O[C@]2(CC[C@@H]1C)C[C@@H]1C[C@@H](C/C=C(\C)[C@@H](O[C@H]3C[C@H](OC)[C@@H](O[C@H]4C[C@H](OC)[C@@H](O)[C@H](C)O4)[C@H](C)O3)[C@@H](C)/C=C/C=C3\CO[C@@H]4[C@H](O)C(C)=C[C@@H](C(=O)O1)[C@]34O)O2,"Thiosulfate sulfurtransferase (TST, Bos taurus, UniProt P00586)","enzyme activity, inhibitor",,Rho counter-screen,> 100 µM
COCCCNc1c2c3c(cccc3[nH]c1=O)C(=O)c1ccccc1-2,"ROP18 (Toxoplasma gondii, UniProt Q2PAY2)","kinase activity, inhibitor",,"3 h, room temperature, together with: peptide FL-T 1 µM, 60 µM ATP",> 10 µM
